Measured values pooled from the literature.
Lines come from different studies, so protocols differ.

For `CN(C)Cc1c(C(=O)NCCOc2ccc(C(=O)NO)cc2)oc2ccccc12`, the inhibition was 87.2% (BT-16; cell viability, MTT; 10 µM, 72 h).
`Cc1cccc(-c2[nH]c(CNc3ccccc3F)nc2-c2ccc3ncnn3c2)n1`: “surface marker level” 55% (RPMI-8226; flow cytometry, item: CD220; concentration not given; reference: comparator compound alone).
With `O=C(/C=C/C=C/C=C/C1CCCCC1)NC1=C[C@@](O)(/C=C/C=C/C=C/C(=O)NC2=C(O)CCC2=O)[C@@H]2O[C@@H]2C1=O` the GI50 was 13.8 µM (DMS-53; cell growth, CellTiter-Glo; 78 h).
For `Cn1cc(-c2ccc(-c3cncc(Cl)c3N3CCC4(CCNC4=O)CC3)cc2)cn1`, “log2 fold change” read 3.98 (COLO 205; gene expression, microarray, item: OPTN mRNA; concentration not given, 6 h; reference: untreated cells).
`COc1cnc2cccc(N3CCc4c(cc(Cn5ccnc5C)cc4-c4cn(C)nc4C(F)(F)F)C3=O)c2c1` gave an EC50 of > 30 µM (OV-90; cell growth, inhibitor; 120 h).
With `CC(C)NCC(O)c1ccc(O)c(O)c1` (stereo not shown) the sarcomere length was 1.8 µm (mouse ventricular cardiomyocytes; dose not given, 0.319 s).
With `CCn1cc(-c2cc(Cn3ccnc3)cc3c2CCN([C@H](c2cc(OC)ccn2)C2CC2)C3=O)c(C(F)(F)F)n1` the EC50 was > 30 µM (JHH5; cell growth; 120 h).
`OC1(c2ccc(Cl)c(C(F)(F)F)c2)CCN(CCCC(c2ccc(F)cc2)c2ccc(F)cc2)CC1` gave an inhibition of 94.9% (BT-16; cell viability, MTT; 10 µM, 72 h).
For `CCn1cc(-c2cc(Cn3ccoc3=N)cc3c2CCN([C@@H](C)c2cc(OC)ccn2)C3=O)c(C(F)(F)F)n1`, the EC50 was 0.14 µM (SNU668; cell growth, inhibitor; 120 h).
The inhibition of `Cn1cc(CNCC2CCN(c3ncc(C(=O)NO)cn3)CC2)c2ccccc21` is reported as 91.9% (BT-16; cell viability, MTT; 10 µM, 72 h).

Repeated from above:
With `CCn1cc(-c2cc(Cn3ccnc3)cc3c2CCN([C@H](c2cc(OC)ccn2)C2CC2)C3=O)c(C(F)(F)F)n1` the EC50 was > 30 µM (JHH5; cell growth; 120 h).
